# Published values from different studies.
# Numbered parts are unrelated; each lists some results of a single study.

# Sample 1
# Target: TAR DNA-binding protein 43, full length, His tag (TARDBP, Homo sapiens, UniProt Q13148, residues 1-414)
# Method: RNA Bind-n-Seq
# Molecule type: RNA
# Medium: in vitro
# Concentration: 20 nM
# Notes: 6-mer, flanks averaged, single round
# Together with: 150 mM LiCl
# Relative to: input library
# Reading: higher = stronger binding
Strand,6-mer enrichment (R)
UCGGCC,0.927
CCUACC,0.949
UGGGUC,1.08
CGGAUG,1.02

# Sample 2
# Target: Prothrombin, mature alpha-thrombin (F2, Homo sapiens, UniProt P00734)
# Method: aptamer microarray, sandwich
# Molecule type: DNA with 2'F-ANA
# Medium: in vitro
# Concentration: 200 nM
# Notes: whole 15-mer aptamer, many near background
# Together with: Cy3 exosite-II aptamer, 400 nM
# Reading: higher = stronger binding
Strand,mean fluorescence intensity
GGTTGGTGTGGTTGG (2'F-ANA at 4 5 8 11 12 13),77.7 a.u.
GGTTGGTGTGGTTGG (2'F-ANA at 4 6 8 9 10),80.7 a.u.
GGTTGGTGTGGTTGG (2'F-ANA at 1 2 5 6 8 10 14 15),50.8 a.u.

# Sample 3
# Target: Interferon regulatory factor 5, full length, phosphomimetic (IRF5, Homo sapiens, UniProt Q13568-2, residues 1-514, S451D/S453D/S456D/S462D)
# Method: protein-binding microarray
# Molecule type: double-stranded DNA, one strand shown
# Medium: in vitro
# Concentration: 940 nM top
# Notes: 60-bp whole probe
# Together with: salmon DNA 0.4 mg/ml
# Relative to: random background probes
# Reading: higher = stronger binding
Strand,fitted relative affinity [z-score]
GCCTAGCACAAATGTTTTGTTTTTCATTAGTGCTAGGTCTTGATTCGCTTGACGCTGCTG,1.24
GCCTAGCACTCAGGTTTCCTTTTCCTTTAGTGCTAGGTCTTGATTCGCTTGACGCTGCTG,1.66
GCCTAGCACTCATAACTCATTTTCATACTGTGCTAGGTCTTGATTCGCTTGACGCTGCTG,0.966

# Mixed results
Molecule,target,assay,test system,conditions,scale,measurement,result
"PhoQ, residues 284 288 289 292 302 303 WVSSAF","PhoP, residues 12 14 15 18 19 IQSYL (Escherichia coli, UniProt P23836)","Sort-seq, measured: YFP reporter",E. coli,"PhoQ-PhoP variant library, together with: 10 µM Mg2+","relative to: high Mg2+ state, higher = stronger signaling",fold induction,49.8

# Some of these lines once more (sample 1):
Strand,6-mer enrichment (R)
UCGGCC,0.927
